Published values collected from several papers.
Several values in a cell are separate wells, animals, samples, runs or records. Numbers after ± are the reported error.

| Structure (SMILES) | target or system | test | test system | setting | scale | quantity | result |
| --- | --- | --- | --- | --- | --- | --- | --- |
| CC(=O)N[C@H](C(=O)N[C@@H](CCC(=O)O)C(=O)N[C@@H](CO)C(=O)N[C@@H](CC(=O)O)C(=O)COC(=O)c1c(C)cccc1C)[C@@H](C)O | THP-1 cells, LPS-primed | pyroptosis, LDH release | – | 25 µM, LPS 1 µg/mL, 4 h, together with: nigericin 5 µM, 2 h | – | cell lysis | 86.2% and 84.9% |
| CN1CCCNC(=O)c2cccc(c2)C(=O)NCCCN(C)CCCNc2cccc3c2C(=O)c2cccc(c2C3=O)NCCC1 | SAS | RNA-Seq, item: WDR61 mRNA | – | 1 µM, 6 h | relative to: untreated cells | log2 fold change | -0.905 |
| CC12CCCC(NS(=O)(=O)c3ccc(Cl)c([N+](=O)[O-])c3)(C1)C1CC(C)(C)C1CC2 (centres unmarked) | HT-29 | cell growth or viability, CCK-8 | – | 10 µM | – | inhibition | < 50% |
| COCCNc1nc(-c2nccn2C)nc2sc(-c3cccc(OC)c3Cl)c(-c3ccccc3)c12 | BxPC-3 | cAMP-Glo | – | 1.0 µM, 1 h, together with: isoprenaline 15 min | – | cAMP level | no effect |
| CNS(=O)(=O)Nc1nccc(Cc2c(C)c3ccc(Oc4ncccc4F)cc3oc2=O)c1F | HCC15 | cell viability | – | 7 days | – | IC50 | > 1000 nM |
| CCC(=CCc1c(O)cc2c(c1O)C(=O)CC(c1ccccc1O)O2)CC (centres unmarked) | HeLa | cell growth or viability, MTT | – | 15 µM, 48 h | – | inhibition | 13.2% |
| C[C@@H]1CC[C@@H]([C@@](O)(CNCc2ccc(F)cc2)COCc2ccc(F)cc2)[C@H](OCc2ccc(F)cc2)C1 | A2780 | cell growth or viability, MTT | – | 10 µM, 72 h | – | inhibition | 94.2% |
| Cc1ncsc1-c1ccc(C(C)NC(=O)C2CC(O)CN2C(=O)C(NC(=O)CCCCCCCCCCN2CCCC(Nc3ncc(Cl)c(Nc4ccccc4S(=O)(=O)C(C)C)n3)C2)C(C)(C)C)cc1 (centres unmarked) | 22Rv1 | RNA-seq, item: RHPN1-AS1 | – | concentration not given | relative to: DMSO | log2 fold change | -2.39 |
| O=c1cc(Cn2ccnc2)c2cc(O)ccc2o1 | COS-7 (untransfected) | – | – | 500 µM, unit not given | relative to: 3 µM ionomycin | calcium mobilisation signal | 0.44 ± 0.65 |
| CC(C)(C)c1cc(-c2ccc3cccnc3n2)nc(-c2ccc3cccnc3n2)c1.COc1ccncc1.[Cl-].[Cl-].[Ru+2].c1ccc2cc3nc4c5cccnc5c5ncccc5c4nc3cc2c1 | SK-MEL-28 | cell viability | – | visible light 400-700 nm, 100 J/cm2 | – | EC50 | 286 ± 17 nM |
| CN(C)c1cccc(-c2ccc([C@H]3[C@@H](F)[C@@H](F)C[C@@H](F)[C@H]3F)cc2)c1 | – | liver microsome stability | dog liver microsomes | 1 µM | – | hepatic clearance | 28 mL/min/kg |
| CCC(=CCc1c(O)cc2c(c1O)C(=O)CC(c1ccc(O)cc1OC)O2)CC (centres unmarked) | HeLa | cell growth or viability, MTT | – | 3.125 µM, 48 h | – | inhibition | 14.9% |
| CCN(CC)CC(=O)Nc1cccc(-n2cc(-c3ccc4ccc(-c5cn(-c6cccc(NC(=O)CN(CC)CC)c6)nn5)cc4c3)nn2)c1 | RCC4 | PCR angiogenesis array, item: SERPINF1 | – | 5 x IC50, 2 h, normoxia | relative to: untreated | fold regulation | -1.15 |
| COC1=C2CC(C)CC(OC)C(O)C(C)C=C(C)C(OC(N)=O)C(OC)C=CC=C(C)C(=O)NC(=CC1=O)C2=O (centres unmarked) | Rh30 | ChIP-seq, item: H3K36me3 peak | – | concentration not given, PRPS2 intron chrX:12808600-12844199 | relative to: untreated control | log fold change | -0.5 |
| COc1ccc(CNC[C@@](O)(COCc2ccc(OC)cc2)[C@@H]2CC[C@@H](C)C[C@H]2OCc2ccc(OC)cc2)cc1 | HeLa | cell growth or viability, MTT | – | 30 µM, 72 h | – | inhibition | 99.4% |
| CC12CCCC(NS(=O)(=O)C3CC3)(C1)C1CC(C)(C)C1CC2 (centres unmarked) | HT-29 | cell growth or viability, CCK-8 | – | 10 µM | – | inhibition | < 50% |
| O=S(=O)(Nc1ccc(OC(F)(F)F)cc1)N1CCCC(C2c3ccc(F)cc3CCc3cc(F)ccc32)C1 (centres unmarked) | D341 | immunoblot, item: CIP2A | – | concentration not given | – | protein level | decreased |
| N#C[C@@H]1CCCN1C(=O)CNC(=O)c1ccnc2ccc(OCCCN3CCN(C(=O)CCc4ccc(O)c(CN5CCN6CC(=O)[O][Al-]([18F])([O]C(=O)C5)[O]c5ccc(CCC(=O)N7CCN(CCCOc8ccc9nccc(C(=O)NCC(=O)N%10CCC[C@H]%10C#N)c9c8)CC7)cc5C6)c4)CC3)cc12 (some centres unmarked) | HT1080 cells expressing human FAP | – | – | 60 min, 37 °C | – | internalized fraction | 70.5 ± 2.3% |
| O=C(CC(F)(F)F)Nc1ccc([C@H]2[C@@H](F)[C@@H](F)C[C@@H](F)[C@H]2F)cc1 | – | liver microsome stability | mouse liver microsomes | 1 µM | – | hepatic clearance | 14 mL/min/kg |
| CSC(=S)N/N=C(\C)c1ccc(Nc2nnc(-c3ccc(Cl)cc3)c3ccccc23)cc1 | HepG2 | cell growth or viability, MTT | – | 5 µM | – | cell death | 92.1% |

For quick reference, copied from above:
| Structure (SMILES) | target or system | test | test system | setting | scale | quantity | result |
| --- | --- | --- | --- | --- | --- | --- | --- |
| CNS(=O)(=O)Nc1nccc(Cc2c(C)c3ccc(Oc4ncccc4F)cc3oc2=O)c1F | HCC15 | cell viability | – | 7 days | – | IC50 | > 1000 nM |
